Experimental data from different studies.
“And” joins repeats or separate records; there may be more than shown. In brackets after ≈: the same amount, converted by molar mass.

| Structure (SMILES) | organism | assay | test system | conditions | how to read | quantity | value |
| --- | --- | --- | --- | --- | --- | --- | --- |
| Nc1c(C(=O)c2ccc(Cl)cc2)sc(S)c1-c1nc2ccccc2s1 | herpes simplex virus 1 | plaque reduction | – | non-toxic dose NG, mean over three titres | – | viral reduction | 20% |
| CCCC(=O)C#Cc1ccc(F)c(F)c1 | Pseudomonas aeruginosa | RT-qPCR, item: lasB | biofilm cells | 10 µM, 24 h | baseline: untreated | mRNA level | 73% |
| FC(F)(F)c1cccc(CNc2nc(NC3CCN(Cc4ccccc4)CC3)c3nc[nH]c3n2)c1 | Cryptococcus neoformans | RNA-seq, item: INP52 (CNAG_01532) mRNA | – | 48 µg/mL, 3 h | baseline: untreated wild type | log2 fold change | -0.368 |
| Cc1cc(Cl)cc(S(C)=NC#N)c1NC(=O)c1cc(Br)nn1-c1ncccc1Cl (stereo not drawn) | Plutella xylostella | – | Raphanus sativus field plot | 50 ppm, 168 h, 10% wettable powder | – | larval viability | 13.8% and 8.6% and 9.7% |
| CN(C)c1ccc(Nc2n[nH]c3nc(-c4ccccc4)nc(N)c23)cc1 | rhinovirus B48 | viral cytopathic effect | HeLa | – | – | IC50 | 450 nM |
| CC[C@H](C)CCCCC(=O)N[C@@H](CCN)C(=O)N[C@H](C(=O)N[C@@H](CCN)C(=O)N[C@H]1CCNC(=O)[C@H]([C@@H](C)O)NC(=O)[C@H](CCN)NC(=O)[C@H](CCN)NC(=O)[C@H](CC(C)C)NC(=O)[C@@H](CC(C)C)NC(=O)[C@H](CCN)NC1=O)[C@@H](C)O | Klebsiella pneumoniae | – | BAA-2784, BALB/c mouse peritonitis, kidney | dose not given | – | bacterial load | 8.64 log CFU and 7.68 log CFU and 8.3 log CFU and 8.45 log CFU and 8.12 log CFU |
| CC1(C)[C@H](NC(=O)/C(=N\OCC(=O)N2CCC(C(=O)O)C2)c2nsc(N)n2)C(=O)N1OS(=O)(=O)O (stereo partly drawn) | Enterobacter aerogenes | agar dilution | ATCC 13048, susceptible | – | – | MIC | 4 µg/mL (≈ 7.47 µM) |
| C=C[C@]1(C)C[C@@H](OC(=O)CSc2ccc(NC(=O)c3ccco3)cc2)[C@]2(C)[C@H](C)CC[C@]3(CCC(=O)[C@H]32)[C@@H](C)[C@@H]1O | Mycoplasma gallisepticum | – | infected chickens, lung | intramuscular, 30 mg/kg daily x3, 72 h | – | lung mycoplasma count | 4.86 log10 CFU/mL and 5.07 log10 CFU/mL and 4.89 log10 CFU/mL and 5.65 log10 CFU/mL and 5.2 log10 CFU/mL and 4.35 log10 CFU/mL and 3.99 log10 CFU/mL |
| C=C(NC(=O)c1csc(-c2nc3c(cc2O)-c2nc(cs2)C(=O)NC(C(C)O)C(=O)NC(=C(C)OC)c2nc(cs2)C(=O)NC2c4nc(cs4)C(=O)NC(COC(=O)c4c5c6c(cccc6n4O)COC(=O)C(OC4CC(C)(O)C(N(C)C)C(C)O4)C2OC5)c2nc-3cs2)n1)C(N)=O (stereo not drawn) | Staphylococcus epidermidis | microbial growth, broth dilution | – | clinical isolate | – | MIC50 | 0.0156 µg/mL (≈ 0.0109 µM) |
| c1ccc(CN2CCOCCOCCN(CCCCCCCCN3CCOCCOCCN(CCCCCCCCN4CCOCCOCCN(Cc5ccccc5)CCOCCOCC4)CCOCCOCC3)CCOCCOCC2)cc1 | Klebsiella pneumoniae | tetracycline MIC, checkerboard | ATCC BAA-2146 | quarter MIC, added: tetracycline | baseline: MIC alone over combination | fold enhancement | 4 fold |
| Nc1nc(-c2ccccc2)nc2[nH]nc(Nc3ccc(F)c(F)c3F)c12 | rhinovirus B48 | viral cytopathic effect | HeLa | – | – | IC50 | 100 nM |
| C[N+](C)(C)CCO.O=C([O-])C(Cl)Cl | Solanum nigrum | herbicidal activity | – | 15 mg/mL, 21 days, post-emergence greenhouse | – | inhibition | 0% |
| Nc1nc(-c2ccccc2)nc2[nH]nc(Nc3c(F)cc(F)cc3F)c12 | rhinovirus B48 | viral cytopathic effect | HeLa | – | – | IC50 | 7960 nM |
| c1ccc(CN2CCOCCOCCN(CCCCCCCCCCCCCCN3CCOCCOCCN(CCCCCCCCCCCCCCN4CCOCCOCCN(Cc5ccccc5)CCOCCOCC4)CCOCCOCC3)CCOCCOCC2)cc1 | Klebsiella pneumoniae | ampicillin antibacterial activity, potentiator, checkerboard | ATCC BAA-2146 beta-lactamase producing | 5 µM (half MIC), added: ampicillin | baseline: ampicillin alone | fold enhancement | 0 fold |
| Nc1nc(-c2ccc(F)cc2F)nc2[nH]nc(Nc3ccc(F)cc3)c12 | rhinovirus B48 | viral cytopathic effect | HeLa | – | – | IC50 | 2470 nM |
| Cc1cc(C(=O)Nc2nc3cccc(C)c3n2[C@H]2CCCCN(C(=O)/C=C/CN(C)C)C2)ccn1 | Trypanosoma brucei brucei | growth inhibition, CellTiter-Glo | Lister 427 bloodstream form | 48 h | – | EC50 | 65 nM and 72 nM |
| C[C@@H]1C(=O)O[C@@H](C)/C=C/C=C\[C@@H](C)[C@@H]2C=C[C@@H]3C[C@@]4(C)O[C@H]4[C@@H](C)[C@H]3[C@@H]2C(=O)C(Cl)(Cl)C1=O | Staphylococcus aureus | – | MSSA clinical isolate | resistant PEN/CLI/ERY/SXT | – | MIC | 0.05 µg/mL (≈ 0.101 µM) |
| Nc1nc(-c2ccccc2)nc2[nH]nc(Nc3ccc(F)cc3)c12 | rhinovirus B48 | viral cytopathic effect | HeLa | – | – | IC50 | 130 nM |
| CC(C)(O/N=C(\C(=O)N[C@@H]1C(=O)N(OS(=O)(=O)O)C1(C)C)c1nsc(N)n1)C(=O)O | Enterobacter aerogenes | agar dilution | ATCC 13048, susceptible | – | – | MIC | > 64 µg/mL |
| Cc1ccc(S(=O)(=O)Nn2c3c(cc(-c4nc5ccccc5s4)c2=O)CCCCCC3)cc1 | herpes simplex virus 1 | viral replication, plaque | Vero | non-toxic dose, mean of three titres | – | plaque reduction | 63.3% |
| Cc1ccc(Nc2n[nH]c3nc(-c4cccc(F)c4)nc(N)c23)cc1 | rhinovirus B48 | viral cytopathic effect | HeLa | – | – | IC50 | 370 nM |
| c1ccc(CN2CCOCCOCCN(CCCCCCCCCCN3CCOCCOCCN(CCCCCCCCCCN4CCOCCOCCN(Cc5ccccc5)CCOCCOCC4)CCOCCOCC3)CCOCCOCC2)cc1 | Klebsiella pneumoniae | tetracycline activity | ATCC BAA-2146 | 2.5 µM, added: tetracycline | baseline: tetracycline alone | fold enhancement | 1.1 fold |
| CC(C)(C)NCC(SS(=O)(=O)O)c1ccccc1 (stereo not drawn) | Schistosoma mansoni | – | mice | 600 mg/kg single dose, 1056 h, dosed day 7, perfused 44 | baseline: vehicle | female worm burden reduction | 28% |
| COC1C=COC2(C)Oc3c(C)c(O)c4c(c3C2=O)C2=NC3(CCN(CC(C)C)CC3)NC2=C(NC(=O)C(C)=CC=CC(C)C(O)C(C)C(O)C(C)C(OC(=O)Nc2cccnn2)C1C)C4=O (stereo not drawn) | Mycobacteroides abscessus | bacterial growth | subsp. abscessus K21 clinical isolate | – | – | IC90 | 219 nM |
| C=C1C(=O)OC2C1CCC(C)(O)C13C=CC(C)(C21)C1(C3)C(=O)OC2C3C(C)C(=O)CC3C(=C)CC(OC(C)=O)C21 (stereo not drawn) | Danio rerio | – | – | concentration not given, HFD-fed larvae NAFLD model | – | MDA content | decreased |
| Cc1cccc2c1N(C(=O)n1ccnn1)CC2 | Arabidopsis thaliana | – | kai2 mutant, seeds | 100 µM, 72 h | – | germination rate | 61.5% and 66.7% and 53.6% and 40.5% and 34.7% |
| CC(=O)OC[C@H]1O[C@@H](Sc2sc(C(=O)c3ccc(Cl)cc3)c(N)c2-c2nc3ccccc3s2)[C@H](OC(C)=O)[C@@H](OC(C)=O)[C@@H]1OC(C)=O | herpes simplex virus 1 | plaque reduction | – | non-toxic dose NG, mean over three titres | – | viral reduction | 13.3% |

Excerpt of the above:
| Structure (SMILES) | organism | assay | test system | conditions | how to read | quantity | value |
| --- | --- | --- | --- | --- | --- | --- | --- |
| Cc1ccc(Nc2n[nH]c3nc(-c4cccc(F)c4)nc(N)c23)cc1 | rhinovirus B48 | viral cytopathic effect | HeLa | – | – | IC50 | 370 nM |
| c1ccc(CN2CCOCCOCCN(CCCCCCCCCCN3CCOCCOCCN(CCCCCCCCCCN4CCOCCOCCN(Cc5ccccc5)CCOCCOCC4)CCOCCOCC3)CCOCCOCC2)cc1 | Klebsiella pneumoniae | tetracycline activity | ATCC BAA-2146 | 2.5 µM, added: tetracycline | baseline: tetracycline alone | fold enhancement | 1.1 fold |
| CC(C)(C)NCC(SS(=O)(=O)O)c1ccccc1 (stereo not drawn) | Schistosoma mansoni | – | mice | 600 mg/kg single dose, 1056 h, dosed day 7, perfused 44 | baseline: vehicle | female worm burden reduction | 28% |
